# Measured values pooled from the literature.
# Lines come from different studies, so protocols differ. ± marks the error that the study gave.
Compound,test,system,conditions,IC50
C=CC[C@@]1(C)NC(=O)CNC(=O)[C@H](Cc2c[nH]c3ccccc23)NC(=O)[C@H](CC(=O)O)NC(=O)[C@H](CCC(N)=O)NC(=O)[C@H](Cc2c[nH]c3ccccc23)NC(=O)[C@H](C(C)C)NC(=O)[C@@H](NC(=O)[C@@H](NC(C)=O)[C@@H](C)CC)CSSC[C@@H](C(=O)N[C@H](C(N)=O)[C@@H](C)O)NC(=O)[C@H](CCCNC(=N)N)NC(=O)[C@H](Cc2c[nH]cn2)NC1=O,"complement activation, inhibitor, ELISA, refers to: C3b",normal human serum,,0.65 ± 0.17 µM
COc1ccc(Nc2nnc(S)s2)cc1,"CoA-CPM signal reduction, CPM fluorescence thiol",cell-free biochemical,"assay interference counter-screen, with: CoA replacing acetyl-CoA",54 ± 2 µM
CCCCC(O)c1ccccc1C(=O)O (stereo not drawn),"platelet aggregation, inhibitor",platelets,with: ADP 10 µmol/L,960 ± 70 µM
CC(=O)N[C@@H](CC(N)=O)C(=O)N[C@@H](CC(N)=O)C(=O)N[C@@H](CC(C)C)C(=O)N[C@H]1CSSC[C@@H](C(=O)N[C@H](C(N)=O)[C@@H](C)O)NC(=O)[C@H](CCCNC(=N)N)NC(=O)[C@H](Cc2c[nH]cn2)NC(=O)[C@H](Cc2cccc3ccccc23)NC(=O)CNC(=O)[C@H](Cc2c[nH]c3ccccc23)NC(=O)[C@H](CC(=O)O)NC(=O)[C@H](CCC(N)=O)NC(=O)[C@H](Cc2cccc3ccccc23)NC(=O)[C@H](C(C)C)NC1=O,"complement activation, inhibitor, ELISA, refers to: C3b",normal human serum,,3.71 ± 0.19 µM
O=c1cc(-c2ccc(O)c(O)c2)oc2cc(O)c([C@@H]3O[C@H](CO)[C@@H](O)[C@H](O)[C@H]3O)c(O)c12,DPPH radical scavenging,,"30 min, 37 °C",44.5 ± 1.25 µg/mL
COc1cc(C=NC(=S)NNC(=O)Cc2ccc(Cl)cc2Cl)cc(OC)c1OC,iron chelation,cell-free,EDTA as standard,22.4 ± 2.09 µM
Fc1cccc(/C=N/N=C/c2cccc(F)c2)c1,nitric oxide scavenging,,antioxidant,1550 µM
CCOC(=O)C1=C(CSC2=NCCS2)NC(=O)NC1c1ccc(C(C)C)cc1 (stereo not drawn),nitric oxide scavenging,,,85.7 µM
O=C(O)c1cccnc1Nc1cccc(C(F)(F)F)c1,input conductance,"vascular smooth muscle cells, guinea pig, MA arteriole segments in situ",,62 µM
CC[C@H](C)[C@H](NC(C)=O)C(=O)N[C@H]1CSSC[C@@H](C(=O)N[C@H](C(N)=O)[C@@H](C)O)NC(=O)[C@H](CCCNC(=N)N)NC(=O)[C@H](Cc2c[nH]cn2)NC(=O)[C@H](C)NC(=O)CNC(=O)[C@H](Cc2c[nH]c3ccccc23)NC(=O)[C@H](CC(=O)O)NC(=O)[C@H](CCC(N)=O)NC(=O)[C@H](Cc2cn(C)c3ccccc23)NC(=O)[C@H](C(C)C)NC1=O,"complement activation, inhibitor, ELISA, refers to: C3b",normal human serum,,0.43 ± 0.04 µM
O=C(Cc1ccc(Cl)cc1Cl)NNC(=S)N=Cc1ccccc1O,iron chelation,cell-free,EDTA as standard,55.7 ± 1.52 µM
Oc1ccc(/C=C/c2cc(O)cc(O)c2)cc1,ABTS radical scavenging,,,29.1 ± 0.57 µg/mL
Clc1ccccc1/C=N/N=C/c1ccccc1Cl,"ferric reducing antioxidant power, FRAP",,,2210 µM
O=C(Cc1ccc(Cl)cc1Cl)NNC(=S)N=Cc1ccc([N+](=O)[O-])cc1,hydroxyl radical scavenging,,,52.7 ± 2.18 µM
CC(=O)N[C@@H](CC(N)=O)C(=O)N[C@@H](CCCNC(=N)N)C(=O)N[C@@H](CC(C)C)C(=O)N[C@H]1CSSC[C@@H](C(=O)N[C@H](C(N)=O)[C@@H](C)O)NC(=O)[C@H](CCCNC(=N)N)NC(=O)[C@H](Cc2c[nH]cn2)NC(=O)[C@H](C)NC(=O)CNC(=O)[C@H](Cc2c[nH]c3ccccc23)NC(=O)[C@H](CC(=O)O)NC(=O)[C@H](CCC(N)=O)NC(=O)[C@H](Cc2c[nH]c3ccccc23)NC(=O)[C@H](C(C)C)NC1=O,"complement activation, inhibitor, ELISA, refers to: C5b-9",normal human serum,,0.45 ± 0.04 µM
CC(=O)Oc1ccccc1C(=O)O,"platelet aggregation, inhibitor",platelets,with: ADP 10 µmol/L,900 ± 80 µM
CC(=O)N[C@@H](CC(N)=O)C(=O)N[C@@H](CCCNC(=N)N)C(=O)N[C@@H](CC(C)C)C(=O)N[C@H]1CSSC[C@@H](C(=O)N[C@H](C(N)=O)[C@@H](C)O)NC(=O)[C@H](CCCNC(=N)N)NC(=O)[C@H](Cc2c[nH]cn2)NC(=O)[C@H](Cc2cccc3ccccc23)NC(=O)CNC(=O)[C@H](Cc2c[nH]c3ccccc23)NC(=O)[C@H](CC(=O)O)NC(=O)[C@H](CCC(N)=O)NC(=O)[C@H](Cc2c[nH]c3ccccc23)NC(=O)[C@H](C(C)C)NC1=O,"complement activation, inhibitor, ELISA, refers to: C3b",normal human serum,,1.9 ± 0.1 µM
O=S(=O)(c1ccc(Br)c2nsnc12)N1CCC(Cc2ccccc2)CC1,"CoA-CPM signal reduction, CPM fluorescence thiol",cell-free biochemical,"assay interference counter-screen, with: CoA replacing acetyl-CoA",> 125 µM
CC[C@H](C)[C@H](NC(C)=O)C(=O)N[C@H]1CSSC[C@@H](C(=O)N[C@H](C(N)=O)[C@@H](C)O)NC(=O)[C@H](CCCNC(=N)N)NC(=O)[C@H](Cc2c[nH]cn2)NC(=O)[C@H](C)NC(=O)CNC(=O)[C@H](Cc2c[nH]c3ccccc23)NC(=O)[C@H](CC(=O)O)NC(=O)[C@H](CCC(N)=O)NC(=O)[C@H](Cc2c[nH]c3ccccc23)NC(=O)[C@H](C(C)C)NC1=O,"complement activation, inhibitor, ELISA, refers to: C5b-9",normal human serum,,0.6 ± 0.04 µM
FC(F)(F)c1ccc(/C=N/N=C/c2ccc(C(F)(F)F)cc2)cc1,"ferric reducing antioxidant power, FRAP",,,> 3000 µM
Cc1c(C)c2c(c(C)c1O)CC[C@@](C)(CCC[C@H](C)CCC[C@H](C)CCCC(C)C)O2,DMPD radical scavenging,,,7.11 µg/mL
COc1ccc(C=NC(=S)NNC(=O)Cc2ccc(Cl)cc2Cl)cc1OC,hydroxyl radical scavenging,,,36.7 ± 2.25 µM
O=S(=O)(Nc1ccccc1)c1cccc2nsnc12,"CoA-CPM signal reduction, CPM fluorescence thiol",cell-free biochemical,"assay interference counter-screen, with: CoA replacing acetyl-CoA",> 125 µM
Cc1c(CN2CCN(C(=O)[C@H](C)O)CC2)sc2c(N3CCOCC3)nc(-c3cnc(N)nc3)nc12,Akt phosphorylation,"cancer patients, Chondrosarcoma primary tumour, plasma",,0.0067 µg/mL
O=C(Cc1ccc(Cl)cc1Cl)NNC(=S)N=Cc1ccccc1[N+](=O)[O-],iron chelation,cell-free,EDTA as standard,49.4 ± 1.54 µM
CC[C@H](C)[C@H](NC(=O)[C@H](CCCNC(=N)N)NC(=O)[C@H](CCC(=O)O)NC(C)=O)C(=O)N[C@H]1CSSC[C@@H](C(=O)N[C@H](C(N)=O)[C@@H](C)O)NC(=O)[C@H](CCCNC(=N)N)NC(=O)[C@H](Cc2c[nH]cn2)NC(=O)[C@H](Cc2cccc3ccccc23)NC(=O)CNC(=O)[C@H](Cc2c[nH]c3ccccc23)NC(=O)[C@H](CC(=O)O)NC(=O)[C@H](CCC(N)=O)NC(=O)[C@H](Cc2cccc3ccccc23)NC(=O)[C@H](C(C)C)NC1=O,"complement activation, inhibitor, ELISA, refers to: C5b-9",normal human serum,,2.37 ± 0.21 µM
O=S1(=O)CC(Sc2ccc(Cl)cc2)c2ccccc21 (stereo not drawn),"CoA-CPM signal reduction, CPM fluorescence thiol",cell-free biochemical,"assay interference counter-screen, with: CoA replacing acetyl-CoA",> 125 µM
CC1(C)CC[C@]2(C(=O)O)CC[C@]3(C)C(=CC[C@@H]4[C@@]5(C)CC[C@H](O[C@@H]6O[C@H](C(=O)O)[C@@H](O)[C@H](O)[C@H]6O)C(C)(C)[C@@H]5CC[C@]43C)[C@@H]2C1,"peroxynitrite scavenging, dihydrorhodamine fluorescence",,,72.74 ± 0.32 µM
CCN(CC)c1ccc(/C=N/c2ccc(F)cc2)c(O)c1,"nitric oxide scavenging, sodium nitroprusside",,,101 µM
O=C1CC(c2cn(Cc3ccccc3)c3ccccc23)C(=O)N1c1ccc(Br)cc1 (stereo not drawn),"CoA-CPM signal reduction, CPM fluorescence thiol",cell-free biochemical,"assay interference counter-screen, with: CoA replacing acetyl-CoA",> 125 µM
Fc1ccc(/C=N/N=C/c2ccc(F)cc2F)c(F)c1,nitric oxide scavenging,,antioxidant,518 µM
O=C1O[C@H]([C@@H](O)CO)C(O)=C1O,nitric oxide scavenging,,,103 µM
CC[C@H](C)[C@H](NC(=O)[C@H](CO)NC(=O)[C@H](CCCNC(=N)N)NC(C)=O)C(=O)N[C@H]1CSSC[C@@H](C(=O)N[C@H](C(N)=O)[C@@H](C)O)NC(=O)[C@H](CCCNC(=N)N)NC(=O)[C@H](Cc2c[nH]cn2)NC(=O)[C@H](Cc2cccc3ccccc23)NC(=O)CNC(=O)[C@H](Cc2c[nH]c3ccccc23)NC(=O)[C@H](CC(=O)O)NC(=O)[C@H](CCC(N)=O)NC(=O)[C@H](Cc2c[nH]c3ccccc23)NC(=O)[C@H](C(C)C)NC1=O,"complement activation, inhibitor, ELISA, refers to: C3b",normal human serum,,2.89 ± 0.14 µM
O=C1O[C@H]([C@@H](O)CO)C(O)=C1O,DPPH radical scavenging,,,12.8 ± 0.44 µg/mL
CCOC(=O)C1=C(CSC2=NCCS2)NC(=O)NC1c1cccc(C)c1 (stereo not drawn),nitric oxide scavenging,,,117 µM
Clc1ccc(/C=N/N=C/c2ccc(Cl)cc2)cc1,nitric oxide scavenging,,antioxidant,799 µM
CCN(CC)c1ccc(/C=N/c2ccccc2Br)c(O)c1,"nitric oxide scavenging, sodium nitroprusside",,,154 µM
O=C1CC(SC2=NCCS2)C(=O)N1c1ccc(Br)cc1 (stereo not drawn),"CoA-CPM signal reduction, CPM fluorescence thiol",cell-free biochemical,"assay interference counter-screen, with: CoA replacing acetyl-CoA",> 125 µM
Cc1ccc(S(=O)(=O)NNC(=O)COC(=O)c2ccccc2Nc2cccc(C(F)(F)F)c2)cc1,"nitric oxide scavenging, Griess",,"30 min, 25 °C, with: sodium nitroprusside 5 mM",431 ± 16 µM
CCOC(=O)C1=C(CCl)NC(=O)NC1c1ccc(C(C)C)cc1 (stereo not drawn),nitric oxide scavenging,,,147 µM
COc1cc(/C=N/N=C/c2cc(OC)c(OC)c(OC)c2)cc(OC)c1OC,"ferric reducing antioxidant power, FRAP",,,> 3000 µM
COc1ccc(Sc2nsc(N)n2)cc1,"CoA-CPM signal reduction, CPM fluorescence thiol",cell-free biochemical,"assay interference counter-screen, with: CoA replacing acetyl-CoA",> 125 µM
O=C1O[C@H]([C@@H](O)CO)C(O)=C1O,"DPPH radical scavenging, DPPH",,,19.7 µg/mL
O=C1CC(SCc2ccccc2)C(=O)N1c1ccc(Br)cc1 (stereo not drawn),"CoA-CPM signal reduction, CPM fluorescence thiol",cell-free biochemical,"assay interference counter-screen, with: CoA replacing acetyl-CoA",> 125 µM
Fc1ccc(/C=N/N=C/c2ccc(F)cc2)cc1,nitric oxide scavenging,,antioxidant,1830 µM
CN1CC(Oc2cnc(C#N)cc2-c2ccn3nc(NC(=O)C4CC4)cc3c2)C1,TNF release,human whole blood,with: LPS,0.87 µM
Cc1cccc(/C=N/N=C/c2cccc(C)c2)c1,"ferric reducing antioxidant power, FRAP",,,> 3000 µM
C[C@@H]1O[C@@H](O[C@H]2[C@H](O[C@H]3CC[C@@]4(C)[C@@H](CC[C@]5(C)[C@@H]4CC=C4[C@@H]6CC(C)(C)CC[C@]6(C(=O)O[C@@H]6O[C@H](CO[C@@H]7O[C@H](CO)[C@@H](O)[C@H](O)[C@H]7O)[C@@H](O)[C@H](O)[C@H]6O)CC[C@]45C)[C@]3(C)CO)OC[C@H](O)[C@@H]2O)[C@H](O)[C@H](O)[C@H]1O,"peroxynitrite scavenging, dihydrorhodamine fluorescence",,,48.7 ± 4.3 µM

# For quick reference, copied from above:
Compound,test,system,conditions,IC50
O=C1CC(c2cn(Cc3ccccc3)c3ccccc23)C(=O)N1c1ccc(Br)cc1 (stereo not drawn),"CoA-CPM signal reduction, CPM fluorescence thiol",cell-free biochemical,"assay interference counter-screen, with: CoA replacing acetyl-CoA",> 125 µM
Fc1ccc(/C=N/N=C/c2ccc(F)cc2F)c(F)c1,nitric oxide scavenging,,antioxidant,518 µM
O=C1O[C@H]([C@@H](O)CO)C(O)=C1O,nitric oxide scavenging,,,103 µM
CC[C@H](C)[C@H](NC(=O)[C@H](CO)NC(=O)[C@H](CCCNC(=N)N)NC(C)=O)C(=O)N[C@H]1CSSC[C@@H](C(=O)N[C@H](C(N)=O)[C@@H](C)O)NC(=O)[C@H](CCCNC(=N)N)NC(=O)[C@H](Cc2c[nH]cn2)NC(=O)[C@H](Cc2cccc3ccccc23)NC(=O)CNC(=O)[C@H](Cc2c[nH]c3ccccc23)NC(=O)[C@H](CC(=O)O)NC(=O)[C@H](CCC(N)=O)NC(=O)[C@H](Cc2c[nH]c3ccccc23)NC(=O)[C@H](C(C)C)NC1=O,"complement activation, inhibitor, ELISA, refers to: C3b",normal human serum,,2.89 ± 0.14 µM
O=C1O[C@H]([C@@H](O)CO)C(O)=C1O,DPPH radical scavenging,,,12.8 ± 0.44 µg/mL
